Experimental data of several laboratories.
Numbered parts are unrelated; each lists some results of a single study. Changes are numbered by the printed parent chain.
Sequence of UniProt P29317 (whole entry, looked up): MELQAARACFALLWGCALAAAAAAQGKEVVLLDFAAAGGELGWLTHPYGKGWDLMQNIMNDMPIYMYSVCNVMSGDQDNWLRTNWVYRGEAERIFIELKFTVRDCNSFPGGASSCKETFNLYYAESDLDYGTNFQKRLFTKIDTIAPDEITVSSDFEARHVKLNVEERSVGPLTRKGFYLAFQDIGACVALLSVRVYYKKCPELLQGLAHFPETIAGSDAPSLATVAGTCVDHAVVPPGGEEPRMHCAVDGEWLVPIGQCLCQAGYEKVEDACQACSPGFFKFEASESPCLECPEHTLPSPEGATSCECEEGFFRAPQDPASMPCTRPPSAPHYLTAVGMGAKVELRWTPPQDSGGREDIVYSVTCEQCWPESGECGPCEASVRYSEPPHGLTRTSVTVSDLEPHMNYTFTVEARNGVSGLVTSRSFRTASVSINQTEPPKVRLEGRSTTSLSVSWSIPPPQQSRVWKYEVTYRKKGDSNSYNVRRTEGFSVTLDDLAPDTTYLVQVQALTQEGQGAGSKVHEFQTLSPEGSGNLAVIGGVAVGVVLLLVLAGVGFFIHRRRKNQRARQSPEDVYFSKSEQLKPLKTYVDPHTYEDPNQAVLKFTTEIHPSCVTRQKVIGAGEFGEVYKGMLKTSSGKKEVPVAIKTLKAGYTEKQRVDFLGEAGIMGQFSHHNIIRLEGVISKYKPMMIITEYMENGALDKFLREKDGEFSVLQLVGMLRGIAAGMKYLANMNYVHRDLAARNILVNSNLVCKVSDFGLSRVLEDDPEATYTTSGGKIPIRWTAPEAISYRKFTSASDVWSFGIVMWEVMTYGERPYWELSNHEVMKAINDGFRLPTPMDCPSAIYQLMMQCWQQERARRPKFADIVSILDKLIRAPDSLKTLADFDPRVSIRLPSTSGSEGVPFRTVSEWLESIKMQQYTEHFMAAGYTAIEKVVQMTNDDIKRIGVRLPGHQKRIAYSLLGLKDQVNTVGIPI
Sequence of UniProt P11802 (whole entry, looked up): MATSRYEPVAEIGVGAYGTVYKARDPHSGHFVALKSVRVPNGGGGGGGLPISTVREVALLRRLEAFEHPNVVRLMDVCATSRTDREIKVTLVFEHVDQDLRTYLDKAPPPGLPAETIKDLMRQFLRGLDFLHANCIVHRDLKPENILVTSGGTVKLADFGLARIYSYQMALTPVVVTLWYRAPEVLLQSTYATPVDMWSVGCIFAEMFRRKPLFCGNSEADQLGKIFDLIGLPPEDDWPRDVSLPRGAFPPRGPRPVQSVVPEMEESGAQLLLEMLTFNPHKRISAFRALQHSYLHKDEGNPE
Sequence of UniProt P25098 (whole entry, looked up): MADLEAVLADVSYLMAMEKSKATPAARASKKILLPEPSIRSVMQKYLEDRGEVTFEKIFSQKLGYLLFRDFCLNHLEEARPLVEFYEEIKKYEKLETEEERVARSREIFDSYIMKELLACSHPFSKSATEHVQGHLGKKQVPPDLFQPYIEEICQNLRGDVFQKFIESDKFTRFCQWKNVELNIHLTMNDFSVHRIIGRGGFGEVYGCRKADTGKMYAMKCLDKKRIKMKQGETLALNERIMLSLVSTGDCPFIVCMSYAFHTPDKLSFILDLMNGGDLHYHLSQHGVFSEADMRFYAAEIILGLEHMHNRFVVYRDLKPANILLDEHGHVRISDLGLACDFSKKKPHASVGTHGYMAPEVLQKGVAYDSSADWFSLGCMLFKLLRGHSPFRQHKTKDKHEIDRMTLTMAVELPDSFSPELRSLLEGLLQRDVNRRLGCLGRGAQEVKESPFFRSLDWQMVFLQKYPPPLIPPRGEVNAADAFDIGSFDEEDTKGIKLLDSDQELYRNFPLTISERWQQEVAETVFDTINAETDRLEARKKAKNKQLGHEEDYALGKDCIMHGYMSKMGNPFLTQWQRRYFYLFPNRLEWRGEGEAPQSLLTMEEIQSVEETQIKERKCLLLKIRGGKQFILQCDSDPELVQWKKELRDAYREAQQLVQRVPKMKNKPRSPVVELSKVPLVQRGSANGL
Sequence of UniProt Q8N5S9 (whole entry, looked up): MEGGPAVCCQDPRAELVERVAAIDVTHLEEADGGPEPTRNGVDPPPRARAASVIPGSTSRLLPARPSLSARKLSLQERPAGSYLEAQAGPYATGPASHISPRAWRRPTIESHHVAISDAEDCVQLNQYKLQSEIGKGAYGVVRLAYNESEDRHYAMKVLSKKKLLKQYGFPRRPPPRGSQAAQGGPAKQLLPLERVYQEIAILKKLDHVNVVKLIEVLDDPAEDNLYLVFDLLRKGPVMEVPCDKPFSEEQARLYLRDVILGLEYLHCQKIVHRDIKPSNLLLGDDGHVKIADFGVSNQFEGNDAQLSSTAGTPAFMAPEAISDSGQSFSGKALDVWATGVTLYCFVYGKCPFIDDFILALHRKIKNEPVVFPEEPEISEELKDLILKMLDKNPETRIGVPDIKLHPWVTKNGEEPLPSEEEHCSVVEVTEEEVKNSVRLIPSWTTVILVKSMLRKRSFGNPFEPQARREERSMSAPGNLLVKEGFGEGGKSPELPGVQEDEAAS
Sequence of UniProt Q8NFD2 (whole entry, looked up): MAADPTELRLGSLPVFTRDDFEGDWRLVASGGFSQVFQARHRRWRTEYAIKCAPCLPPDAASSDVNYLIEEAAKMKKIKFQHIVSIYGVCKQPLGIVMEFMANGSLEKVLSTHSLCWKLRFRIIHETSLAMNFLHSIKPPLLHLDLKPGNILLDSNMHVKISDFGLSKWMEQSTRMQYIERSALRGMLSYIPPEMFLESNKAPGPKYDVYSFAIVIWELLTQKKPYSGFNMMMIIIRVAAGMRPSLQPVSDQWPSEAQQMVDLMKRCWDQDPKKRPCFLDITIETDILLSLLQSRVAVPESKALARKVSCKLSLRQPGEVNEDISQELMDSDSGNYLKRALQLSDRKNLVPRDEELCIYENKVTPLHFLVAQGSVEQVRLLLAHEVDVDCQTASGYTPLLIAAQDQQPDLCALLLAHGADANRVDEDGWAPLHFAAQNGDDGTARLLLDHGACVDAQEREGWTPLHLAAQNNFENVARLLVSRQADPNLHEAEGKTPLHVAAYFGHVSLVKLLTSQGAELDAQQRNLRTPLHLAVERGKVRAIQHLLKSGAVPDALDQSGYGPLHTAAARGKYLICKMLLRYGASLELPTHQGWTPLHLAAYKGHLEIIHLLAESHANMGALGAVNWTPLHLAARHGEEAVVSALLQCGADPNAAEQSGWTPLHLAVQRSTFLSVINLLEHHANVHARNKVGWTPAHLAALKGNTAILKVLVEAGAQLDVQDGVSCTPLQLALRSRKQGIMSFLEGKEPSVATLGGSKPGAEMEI
Sequence of UniProt Q8TDR2 (whole entry, looked up): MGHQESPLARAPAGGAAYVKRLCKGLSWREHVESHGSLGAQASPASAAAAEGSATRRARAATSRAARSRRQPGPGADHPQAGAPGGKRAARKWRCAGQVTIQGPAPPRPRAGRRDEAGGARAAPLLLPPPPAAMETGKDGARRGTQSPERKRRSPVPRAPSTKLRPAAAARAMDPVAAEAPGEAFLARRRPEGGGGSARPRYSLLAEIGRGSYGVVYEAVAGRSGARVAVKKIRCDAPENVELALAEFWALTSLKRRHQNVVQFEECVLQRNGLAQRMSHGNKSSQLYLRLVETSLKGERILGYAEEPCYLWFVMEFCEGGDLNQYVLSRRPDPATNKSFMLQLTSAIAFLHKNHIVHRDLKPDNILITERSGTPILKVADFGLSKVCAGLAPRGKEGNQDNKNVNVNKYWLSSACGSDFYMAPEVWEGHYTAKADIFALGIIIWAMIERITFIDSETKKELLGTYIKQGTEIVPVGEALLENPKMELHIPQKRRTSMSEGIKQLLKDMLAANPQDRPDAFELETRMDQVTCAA
Sequence of UniProt P49759 (whole entry, looked up): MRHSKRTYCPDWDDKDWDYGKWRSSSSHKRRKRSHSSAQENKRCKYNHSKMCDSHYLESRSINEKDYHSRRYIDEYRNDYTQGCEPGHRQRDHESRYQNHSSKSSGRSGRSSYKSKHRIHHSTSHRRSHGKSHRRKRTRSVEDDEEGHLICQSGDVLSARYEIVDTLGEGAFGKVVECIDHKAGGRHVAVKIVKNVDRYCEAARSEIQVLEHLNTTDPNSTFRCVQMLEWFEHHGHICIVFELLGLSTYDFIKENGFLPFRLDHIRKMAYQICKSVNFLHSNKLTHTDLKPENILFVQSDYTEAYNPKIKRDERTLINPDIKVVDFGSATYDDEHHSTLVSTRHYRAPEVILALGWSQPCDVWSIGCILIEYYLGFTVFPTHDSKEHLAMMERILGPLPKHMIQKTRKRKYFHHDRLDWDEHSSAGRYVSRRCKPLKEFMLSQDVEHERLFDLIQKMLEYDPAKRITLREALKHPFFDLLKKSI
Sequence of UniProt P51812 (whole entry, looked up): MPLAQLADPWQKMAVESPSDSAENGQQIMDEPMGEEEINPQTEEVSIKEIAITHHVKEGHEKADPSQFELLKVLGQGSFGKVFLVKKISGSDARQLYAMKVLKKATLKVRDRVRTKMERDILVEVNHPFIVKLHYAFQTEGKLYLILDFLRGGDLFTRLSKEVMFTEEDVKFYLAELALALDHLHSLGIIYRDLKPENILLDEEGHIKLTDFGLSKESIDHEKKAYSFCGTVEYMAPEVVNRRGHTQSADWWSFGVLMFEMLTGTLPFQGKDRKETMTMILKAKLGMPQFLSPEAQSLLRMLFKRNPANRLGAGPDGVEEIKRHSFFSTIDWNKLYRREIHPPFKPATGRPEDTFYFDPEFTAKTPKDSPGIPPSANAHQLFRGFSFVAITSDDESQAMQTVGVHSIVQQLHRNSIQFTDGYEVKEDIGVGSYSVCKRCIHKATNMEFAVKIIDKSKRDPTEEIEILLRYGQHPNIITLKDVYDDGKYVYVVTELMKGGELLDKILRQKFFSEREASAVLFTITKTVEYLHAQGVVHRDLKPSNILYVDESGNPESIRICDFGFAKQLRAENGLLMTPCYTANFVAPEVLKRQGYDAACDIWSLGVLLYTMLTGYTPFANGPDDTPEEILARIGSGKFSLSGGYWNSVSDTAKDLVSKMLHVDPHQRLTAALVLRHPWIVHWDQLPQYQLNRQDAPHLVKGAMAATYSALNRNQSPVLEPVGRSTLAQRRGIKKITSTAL

Series 1
Target: PABPC1L2, full length, GST fusion (mouse, UniProt A0ABA7IW68)
Technique: RNAcompete
Form: RNA
Sample: in vitro
Tested at: 20 nM
Notes: 7-mer, probes averaged, single round
Reference: mean of 7-mers
Direction: higher = stronger binding
Construct (chain): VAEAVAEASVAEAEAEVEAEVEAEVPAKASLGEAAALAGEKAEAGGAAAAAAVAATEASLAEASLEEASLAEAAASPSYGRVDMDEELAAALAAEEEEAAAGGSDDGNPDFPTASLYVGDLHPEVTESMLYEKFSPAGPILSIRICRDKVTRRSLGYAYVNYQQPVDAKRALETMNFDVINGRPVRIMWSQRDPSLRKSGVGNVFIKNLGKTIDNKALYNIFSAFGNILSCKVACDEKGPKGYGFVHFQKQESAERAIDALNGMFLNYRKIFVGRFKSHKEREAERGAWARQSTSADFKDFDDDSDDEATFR
Sequence	7-mer Z-score
CUGACGG	-0.155
UUCGACU	-0.351
AUGACCG	0.0279
CACUGAG	0.193
AGCAGGA	0.164
AUCCCAG	-0.213
GUAGCUU	-0.24
UAGAAGG	0.106

Series 2
SMILES: O=C1Cc2c([nH]c3ccc([N+](=O)[O-])cc23)-c2ccccc2N1
Read-out: enzyme activity
Action: inhibitor
Tested at: 0.5 µM
Reference: control
target	remaining activity
Ribosomal protein S6 kinase alpha-3 (RPS6KA3, Homo sapiens, UniProt P51812)	70.6%
Dual specificity protein kinase CLK1 (CLK1, Homo sapiens, UniProt P49759)	111%
Dual specificity protein kinase CLK2 (CLK2, Homo sapiens, UniProt P49760)	97.7%
Calcium/calmodulin-dependent protein kinase kinase 1 (CAMKK1, Homo sapiens, UniProt Q8N5S9)	91.7%
Ephrin type-A receptor 2 (EPHA2, Homo sapiens, UniProt P29317)	92.7%
Protein kinase C theta type (PRKCQ, Homo sapiens, UniProt Q04759)	98.2%

Series 3
Change: P83N
Target: ABI1, truncated, D143A, DHFR fusion (Arabidopsis thaliana)
Technique: DHFR PCA, deep sequencing
Sample: yeast
Notes: methotrexate growth selection, single substitutions
Reference: wild-type fitted maximum
Direction: higher = stronger binding
Parent: PYL1, truncated, DHFR fusion (Arabidopsis thaliana); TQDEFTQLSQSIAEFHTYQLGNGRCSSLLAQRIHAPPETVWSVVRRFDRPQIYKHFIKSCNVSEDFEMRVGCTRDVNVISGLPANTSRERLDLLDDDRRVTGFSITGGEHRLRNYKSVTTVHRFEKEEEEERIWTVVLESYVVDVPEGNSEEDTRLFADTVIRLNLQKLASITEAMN
with	relative binding score [%]
(+)-ABA 17 µM	-5.26
(+)-ABA 710 µM	46
(+)-ABA 200 µM	33.9
(+)-ABA 58 µM	19.9
(+)-ABA 4.8 µM	-0.131
(+)-ABA 0.032 µM	17.4

Series 4
Structure (SMILES): O=C(O)c1cc(-c2ccc(C3CCNCC3)cc2)c2ccc(-c3ccc(C(F)(F)F)cc3)cc2c1
Read-out: cell-free assay
Technique: competition with immobilised ligand
Tested at: 1 µM
target	remaining binding [%]
Death-associated protein kinase 2 (DAPK2, Homo sapiens, UniProt Q9UIK4)	100
Serine/threonine-protein kinase Chk1 (CHEK1, Homo sapiens, UniProt O14757)	100
LIM domain kinase 1 (LIMK1, Homo sapiens, UniProt P53667)	100
Ephrin type-A receptor 2 (EPHA2, Homo sapiens, UniProt P29317)	100
Beta-adrenergic receptor kinase 1 (GRK2, Homo sapiens, UniProt P25098)	100
Cyclin-dependent kinase 4 (CDK4, Homo sapiens, UniProt P11802)	100
Mitogen-activated protein kinase 3 (MAPK3, Homo sapiens, UniProt P27361)	100
Receptor-type tyrosine-protein kinase FLT3 (FLT3, Homo sapiens, UniProt P36888, R834Q)	100
Tyrosine-protein kinase ABL1, non-phosphorylated (ABL1, Homo sapiens, UniProt P00519, T315I)	74
Death-associated protein kinase 1 (DAPK1, Homo sapiens, UniProt P53355)	100
Serine/threonine-protein kinase 35 (STK35, Homo sapiens, UniProt Q8TDR2)	100
Ankyrin repeat and protein kinase domain-containing protein 1 (ANKK1, Homo sapiens, UniProt Q8NFD2)	100
Mitogen-activated protein kinase 6 (MAPK6, Homo sapiens, UniProt Q16659)	100

Repeated from above (series 1):
Sequence	7-mer Z-score
UUCGACU	-0.351
GUAGCUU	-0.24
